Assay results of several laboratories.
Lines come from different studies, so protocols differ.

| SMILES | test | test system | setting | endpoint | value |
| --- | --- | --- | --- | --- | --- |
| Nc1nc2cc(-c3ccc4ncc(C(=O)N5CCOCC5)n4c3)ccc2o1 | item: Nausea, any cause, all grades | patients with advanced solid tumours | dose not given | patients with adverse events | 56% |
| CN1CC[C@@H](c2c(O)cc(O)c3c(=O)cc(-c4ccc(C(F)(F)F)cc4Cl)oc23)[C@@H]1CO | item: Vomiting | B-cell malignancies | oral, 150 mg, intermittent dosing | patients with adverse event | 0% |
| CC(=O)c1c(C)c2cnc(Nc3ccc(C4CCN(CCS(C)(=O)=O)CC4)cn3)nc2n(C2CCCC2)c1=O |  | HR+/HER2- advanced breast cancer patients | oral, dose not given, grade 3/4,, total | patients with AST increased | 1.2% |
| N[C@@H]1c2ccccc2OC12CCN(c1cnc3c(N4CCCc5ncccc54)n[nH]c3n1)CC2 |  | advanced solid tumour patients | oral, 50 mg once daily | patients with serious TEAE | 33.3% |
| O=C1Nc2cc3[nH]nc(-c4ccncc4)c3cc2CN1Cc1ccccc1 | item: Nausea | patients with advanced solid tumours | intravenous, dose not given, all schedules | patients with TEAE | 35% |
| CO[C@H]1C[C@@H]2CC[C@@H](C)[C@@](O)(O2)C(=O)C(=O)N2CCCC[C@H]2C(=O)O[C@H]([C@H](C)C[C@@H]2CC[C@@H](OC(=O)NCCOCCOCCOCCOCCOCCOCCOCCOCCC(=O)N3CCc4cc(Cn5nc(-c6ccc7oc(N)nc7c6)c6c(N)ncnc65)ccc4C3)[C@H](OC)C2)C[C@@H](O)[C@H](C)/C=C(\C)[C@@H](O)[C@@H](OC)C(=O)[C@H](C)C[C@H](C)/C=C/C=C/C=C/1C | item: treatment-related AEs | patients with advanced solid tumours | intravenous, 1.6 mg/3 mg, any grade, weekly | patients with AE | 0% |
| CCN(CCO)CCCC(C)Nc1ccnc2cc(Cl)ccc12 (centres unmarked) | item: Purpura grade 1 | newly diagnosed glioblastoma patients | oral, 200 mg/dose, with radiotherapy and temozolomide | patients with adverse event | 33% |
| C=CCNc1c(O)cc2c(O)c1C[C@@H](C)C[C@H](OC)[C@H](O)[C@@H](C)/C=C(\C)[C@H](OC(N)=O)[C@@H](OC)/C=C\C=C(/C)C(=O)N2 |  | unresectable or metastatic STS, GIST, other | intravenous, 500 mg/m^2 | patients with arthralgia TEAE | 0% |

A few entries again:
| SMILES | test | test system | setting | endpoint | value |
| --- | --- | --- | --- | --- | --- |
| Nc1nc2cc(-c3ccc4ncc(C(=O)N5CCOCC5)n4c3)ccc2o1 | item: Nausea, any cause, all grades | patients with advanced solid tumours | dose not given | patients with adverse events | 56% |
